Assay results gathered from unrelated publications.
Each line is one published result; not all experiments were run side by side. ± marks the error that the study gave.

SMILES = C(#Cc1c[nH]c2nccc(-c3cccnc3)c12)c1cccnc1; tested on = Venezuelan equine encephalitis virus; assay = viral replication; system = U-87 MG, TC-83; endpoint = EC50; result = 1.24 ± 0.19 µM
SMILES = NC(=O)c1nc(F)c[nH]c1=O; tested on = Venezuelan equine encephalitis virus; assay = viral replication; system = skin fibroblasts, TC83; conditions = 72 h; endpoint = EC50; result = > 200 µM
SMILES = N#Cc1c(Nc2ccc(F)cc2)n[nH]c1NS(=O)(=O)c1ccc2ccccc2c1; tested on = Venezuelan equine encephalitis virus; assay = viral replication; system = Vero 76, TC-83; endpoint = EC50; result = > 8 µM
SMILES = O=C(N1CCC2(CC1)C[C@@H](CN1CCCCS1(=O)=O)CCO2)C1(c2ccccc2)CCCC1; tested on = Venezuelan equine encephalitis virus; assay = viral replication; system = MRC5; endpoint = EC50; result = > 40 µM
SMILES = COc1cc2c(cc1O)[C@@H](Cc1ccc(O)c(Oc3ccc(C[C@@H]4c5cc(OC)c(OC)cc5CCN4C)cc3)c1)N(C)CC2; tested on = Spike glycoprotein (Severe acute respiratory syndrome coronavirus 2, UniProt P0DTC2); assay = binding, biolayer interferometry; endpoint = Kd; result = 139 µM
SMILES = CC(C)OC(=O)[C@H](C)N[P@](=O)(OC[C@H]1O[C@@H](n2ccc(=O)[nH]c2=O)[C@](C)(F)[C@@H]1O)Oc1ccccc1; tested on = Venezuelan equine encephalitis virus; assay = viral replication; system = skin fibroblasts, TC83; conditions = 72 h; endpoint = EC50; result = 12 ± 3 µM
SMILES = CNC(=O)[C@@H](NC(=O)[C@H](CC(C)C)[C@H](O)C(=O)NO)C(C)(C)C; system = mouse; conditions = 60 µg/mouse, observed up to 0 h, with: Daboia russelii venom, Southeast, preincubated; endpoint = time of death; result = > 24 h
SMILES = NCC1(O)CCOC2(CCN(C(=O)C3(c4ccccc4)CCCC3)CC2)C1 (stereo not drawn); tested on = Venezuelan equine encephalitis virus; assay = viral replication; endpoint = EC50; result = > 39.8 µM
SMILES = Cn1cnc(Cn2c(=O)[nH]/c(=N\c3cc4cn(C)nc4cc3Cl)n(Cc3cc(F)c(F)cc3F)c2=O)n1; system = human, moderate renal impairment; conditions = oral, 375 mg; endpoint = dry mouth TEAE, Mild severity; result = 0%
SMILES = C(#Cc1c[nH]c2nccc(-c3ccncc3)c12)c1cccnc1; tested on = Venezuelan equine encephalitis virus; assay = viral replication; system = U-87 MG, TC-83; endpoint = EC50; result = 0.59 ± 0.28 µM
SMILES = CC[C@H](C)[C@H](NC(=O)[C@H](CC(C)C)NC(=O)[C@H](Cc1c[nH]c2ccccc12)NC(=O)[C@H](CCC(N)=O)NC(=O)[C@@H](NC(=O)[C@H](Cc1ccccc1)NC(=O)[C@H](C)NC(=O)[C@H](CCCCNC(=O)COCCOCCNC(=O)COCCOCCNC(=O)CC[C@H](NC(=O)CCCCCCCCCCCCCCCCCCC(=O)O)C(=O)O)NC(=O)[C@H](CCC(N)=O)NC(=O)[C@H](C)NC(=O)[C@@H](NC(=O)[C@H](CCCCN)NC(=O)[C@H](CC(=O)O)NC(=O)[C@H](CC(C)C)NC(=O)C(C)(C)NC(=O)[C@@H](NC(=O)[C@H](CO)NC(=O)[C@H](Cc1ccc(O)cc1)NC(=O)[C@H](CC(=O)O)NC(=O)[C@H](CO)NC(=O)[C@@H](NC(=O)[C@H](Cc1ccccc1)NC(=O)[C@@H](NC(=O)CNC(=O)[C@H](CCC(=O)O)NC(=O)C(C)(C)NC(=O)[C@@H](N)Cc1ccc(O)cc1)[C@@H](C)O)[C@@H](C)O)[C@@H](C)CC)[C@@H](C)CC)C(C)C)C(=O)N[C@@H](C)C(=O)NCC(=O)NCC(=O)N1CCC[C@H]1C(=O)N[C@@H](CO)C(=O)N[C@@H](CO)C(=O)NCC(=O)N[C@@H](C)C(=O)N1CCC[C@H]1C(=O)N1CCC[C@H]1C(=O)N1CCC[C@H]1C(=O)N[C@@H](CO)C(N)=O; system = healthy subjects, single ascending dose; conditions = 5.0 mg, day 29; endpoint = serum lipase; result = 25.3 ± 6.5 U/L
SMILES = Cc1ccc(C2(C(=O)N3CCC4(CC3)CC(CNS(C)(=O)=O)CCO4)CCCC2)cc1 (stereo not drawn); tested on = Venezuelan equine encephalitis virus; assay = viral replication; endpoint = EC50; result = > 39.8 µM
SMILES = COc1cc(-c2ccnc3[nH]cc(C#Cc4cccnc4)c23)ccc1F; tested on = Venezuelan equine encephalitis virus; assay = viral replication; system = U-87 MG, TC-83; endpoint = EC50; result = > 10 µM
SMILES = CS(=O)(=O)NCC1CCOC2(CCN(C(=O)Cc3ccccc3)CC2)C1 (stereo not drawn); tested on = Venezuelan equine encephalitis virus; assay = viral replication; endpoint = EC50; result = > 39.8 µM
SMILES = Nc1ncnc2c([C@@H]3N[C@H](CO)[C@@H](O)[C@H]3O)c[nH]c12; tested on = Marburg marburgvirus; assay = virus production; system = HeLa, Musoke; conditions = 0.4 µM; endpoint = inhibition; result = 6.6%

For quick reference, copied from above:
SMILES = NC(=O)c1nc(F)c[nH]c1=O; tested on = Venezuelan equine encephalitis virus; assay = viral replication; system = skin fibroblasts, TC83; conditions = 72 h; endpoint = EC50; result = > 200 µM
SMILES = N#Cc1c(Nc2ccc(F)cc2)n[nH]c1NS(=O)(=O)c1ccc2ccccc2c1; tested on = Venezuelan equine encephalitis virus; assay = viral replication; system = Vero 76, TC-83; endpoint = EC50; result = > 8 µM
